Published values from different studies.
Values joined by “and” are separate records of one study, mostly repeats; a detail may differ. ± gives the spread as reported. ≈ marks a conversion by molar mass, not a printed value.

CC(C)n1ncc2c(C(=O)NCC(C)(C)N)cc(C3CC3)nc21 — plaque reduction (Enterovirus D68; viral replication; RD, US/MO/14-18947; 300 nM): 41.2% and 43.8%
C=C(NC(=O)c1csc(-c2nc3c(cc2O)-c2nc(cs2)C(=O)NC(C(C)O)C(=O)NC(=C(C)OC)c2nc(cs2)C(=O)NC2c4nc(cs4)C(=O)NC(COC(=O)c4c5c6c(cccc6n4O)COC(=O)C(OC4CC(C)(O)C(N(C)C)C(C)O4)C2OC5)c2nc-3cs2)n1)C(N)=O (stereo not drawn) — MIC50 (Staphylococcus epidermidis; broth microdilution; methicillin-resistant isolates): 0.0156 µg/mL (≈ 0.0109 µM)
C#CCO/N=C(\C(=O)N[C@@H]1C(=O)N(OS(=O)(=O)O)C1(C)C)c1nsc(N)n1 — MIC (Proteus vulgaris; agar dilution; ATCC 29905, susceptible): 0.25 µg/mL (≈ 0.597 µM)
CC(C)(C)OC(=O)N1CCN(c2ccc(-c3ccc4ncnc(Nc5ccc(OCc6cccc(F)c6)c(Cl)c5)c4c3)cc2)CC1 — EC50 (Leishmania major; parasite growth, resazurin; promastigote): > 3 µM
O=C1NC(=O)C2(NC1Cc1ccccc1)C1CC3CC(C1)CC2C3 (stereo not drawn) — IC90 (Trypanosoma brucei; parasite growth; pH 7.4, blood stage): 27.1 µM
C#CCNC(=O)C(C)(C)O/N=C(\C(=O)N[C@@H]1C(=O)N(S(=O)(=O)O)[C@H]1C)c1csc(N)n1 — MIC (Shigella flexneri; agar dilution; ATCC 12022 susceptible): 1 µg/mL (≈ 2.12 µM)
CO[C@H]1O[C@H](COC(c2ccccc2)(c2ccccc2)c2ccccc2)[C@@H](OS(=O)(=O)c2ccccc2)[C@H](OS(=O)(=O)c2ccccc2)[C@H]1OS(=O)(=O)c1ccccc1 — MBC (Bacillus cereus; microbial killing, broth dilution): 8 µg/mL
Cc1ccc(C(C)C)c(OCc2ccc(C(=O)N/N=C/c3cccc(O)c3O)cc2)c1 — Emax (Mus musculus; gene silencing, high-content imaging; LDR reporter GFP cells; 30 h, retest run 1): 39%
Cc1c(CN(C)C(=O)/C=C/c2cnc3c(c2)CC(N)C(=O)N3)oc2ccccc12 (stereo not drawn) — MIC (Escherichia coli; broth microdilution; AR-0559): 8 µg/mL (≈ 20.5 µM)
CS(=O)(=O)c1ccc(-c2ccc3ncnc(Nc4ccc(OCc5cccc(F)c5)c(Cl)c4)c3c2)cc1 — EC50 (Leishmania major; parasite growth, resazurin; promastigote): 1.6 µM
CC(=O)OC[C@H]1O[C@@H](Sc2sc(C(=O)c3ccc(C)cc3)c(N)c2-c2nc3ccccc3s2)[C@H](OC(C)=O)[C@@H](OC(C)=O)[C@H]1OC(C)=O — viral titre reduction (human adenovirus type 7; plaque reduction; non-toxic concentration): 10%
CCN(CC)CCCNC(=O)CSc1c2c(nc3cc(Cl)ccc13)CCCC2 — Emax (Mus musculus; gene silencing, high-content imaging; LDR reporter GFP cells; 30 h, retest, mean of two runs): 86%
CC1(C)[C@H](NC(=O)/C(=N\OCc2cc(=O)c(O)cn2O)c2csc(N)n2)C(=O)N1OS(=O)(=O)O — MIC (Proteus vulgaris; agar dilution; ATCC 29905 susceptible): ≤ 0.03 µg/mL
O=C(N/N=C/c1ccccn1)c1cc(-c2ccc(Cl)cc2)nc2ccccc12 — Emax (Mus musculus; gene silencing, high-content imaging; LDR reporter GFP cells; 30 h, confirmation, mean of two runs): 61%
CC(C)n1ncc2c(C(=O)NCC3CNC3)cc(C3CC3)nc21 — plaque reduction (Enterovirus D68; viral replication; RD, US/MO/14-18947; 30 nM): 0%
Fc1cccc(COc2ccc(Nc3ncnc4ccc(-c5cccc(CN6CCOCC6)c5)cc34)cc2Cl)c1 — EC50 (Leishmania major; parasite growth, resazurin; promastigote): 3.3 µM
CC(=O)O[C@@H]1[C@@H](OC(C)=O)[C@H](Sc2sc(C(=O)c3ccc(Cl)cc3)c(N)c2-c2nc3ccccc3s2)OC[C@H]1OC(C)=O — viral titre reduction (human adenovirus type 7; plaque reduction; non-toxic concentration): 0%
Cc1cccc2c1N(C(=O)n1ccnn1)CC2 — hypocotyl length (Arabidopsis thaliana; wild type, seedlings; 30 µM, continuous red light, together with: 0.3 µM karrikin KAR2): 11.9 mm
CC1(C)[C@H](NC(=O)/C(=N\OCC(=O)N2CCC(C(=O)O)C2)c2nsc(N)n2)C(=O)N1OS(=O)(=O)O (stereo partly drawn) — MIC (Proteus vulgaris; agar dilution; ATCC 29905, susceptible): 1 µg/mL (≈ 1.87 µM)
CC(=O)OC[C@H]1O[C@@H](Sc2sc(C(=O)c3ccc(Br)cc3)c(N)c2-c2nc3ccccc3s2)[C@H](OC(C)=O)[C@@H](OC(C)=O)[C@H]1OC(C)=O — viral titre reduction (human adenovirus type 7; plaque reduction; non-toxic concentration): 10%
COc1cc(NC=O)c(N(C)S(=O)(=O)c2ccc(N(C)C)cc2)cc1OC — selectivity index (Leishmania infantum; intracellular amastigote growth; U-937 macrophages and HeLa; relative to: IC50 HeLa over IC50 amastigotes): 0.22
COc1ccc(NC(=O)CSc2nc3c(oc4ccccc43)c(=O)n2Cc2ccco2)cc1Cl — AC50 (Mus musculus; gene silencing, high-content imaging; LDR reporter GFP cells; retest run 2): 10 µM
O=S(=O)(c1ccc(-c2ccc3ncnc(Nc4ccc(OCc5cccc(F)c5)c(Cl)c4)c3c2)cc1)N1CCSCC1 — EC50 (Leishmania major; parasite growth, resazurin; promastigote): > 15 µM
O=C(N/N=C/c1ccc2c(ccc[n+]2Cc2ccccc2)c1)c1cncc(C(=O)N/N=C/c2ccc3c(ccc[n+]3Cc3ccccc3)c2)n1 — ΔTm (hp2 hairpin duplex DNA; FRET melting; 1 µM, together with: ds26 10 µM): 2.2 ± 0.1 °C
Cc1ccc(/C=N/N=C(\S)Nc2cccc(S(=O)(=O)N(C)C)c2)o1 — Emax (Mus musculus; gene silencing, high-content imaging; LDR reporter GFP cells; 30 h, retest, mean of two runs): 50%
CC(C)n1ncc2c(C(=O)NC[C@@H](C)N)cc(C3CC3)nc21 — plaque reduction (Enterovirus D68; viral replication; RD, US/MO/14-18947; 1000 nM): 98% and 99.8%
COCC/N=C(\S)N/N=C(\C)c1ccccc1O — Emax (Mus musculus; gene silencing, high-content imaging; LDR reporter GFP cells; 30 h, retest, mean of two runs): 54%
COc1ccccc1NC(=O)OC1C(C)C(OC)C=COC2(C)Oc3c(C)c(O)c4c(c3C2=O)C2=NC3(CCN(CC(C)C)CC3)NC2=C(NC(=O)C(C)=CC=CC(C)C(O)C(C)C(O)C1C)C4=O (stereo not drawn) — MBC (Mycobacteroides abscessus; ATCC 19977, caseum surrogate; 5 d, non-replicating): 20 µM
CCCCCOc1ccc(-c2ccc3ncnc(Nc4ccc(OCc5cccc(F)c5)c(Cl)c4)c3c2)c(F)c1F — EC50 (Leishmania major; parasite growth, resazurin; promastigote): > 15 µM
C=CCO/N=C(\C(=O)N[C@@H]1C(=O)N(OS(=O)(=O)O)C1(C)C)c1nsc(N)n1 — MIC (Proteus vulgaris; agar dilution; ATCC 29905, susceptible): ≤ 0.03 µg/mL
CC1C=CC=CC(C)C2C=CC3CC(C)(O)C(Cl)C(C)C3C2C(=O)C(Cl)(Cl)C(=O)C(C)C(=O)O1 (stereo not drawn) — MIC (Staphylococcus aureus; MRSA clinical isolate; resistant: OXA,CLI,ERY,MXF): 0.025 µg/mL (≈ 0.047 µM)
CC1(C)C(NC(=O)C(=NOC2(C(=O)O)CC2)c2csc(N)n2)C(=O)N1OS(=O)(=O)O (stereo not drawn) — MIC (Proteus vulgaris; agar dilution; ATCC 29905, susceptible): ≤ 0.03 µg/mL
CNCc1ccc2c(c1)N(C(=O)OCc1c(F)c(F)c(F)c(F)c1F)[C@H](CNC(=N)N)[C@H]2NC(=O)C(=O)Nc1ccc(Cl)c(F)c1 — IC80 (HIV-1; viral infection; TZM-bl, CRF02_AG 235-47 Env pseudovirus): 2.52 µM
C[C@@H]1C(=O)O[C@@H](C)/C=C/C=C\[C@@H](C)[C@@H]2C=C[C@@H]3C[C@@]4(C)O[C@H]4[C@@H](C)[C@H]3[C@@H]2C(=O)C(Cl)(Cl)C1=O — MIC (Staphylococcus aureus; MRSA clinical isolate; resistant: OXA,DOX,TET): 0.2 µg/mL (≈ 0.404 µM)
O=C(c1cccc(-c2ccc3ncnc(Nc4ccc(OCc5cccc(F)c5)c(Cl)c4)c3c2)c1)N1CCCCC1 — EC50 (Leishmania major; parasite growth, resazurin; promastigote): > 3 µM
CC(C)(C)NCC(SS(=O)(=O)O)c1ccccc1 (stereo not drawn) — male worms recovered (Schistosoma mansoni; mice; 600 mg/kg single dose, dosed day 1, perfused 44): 16 worms per mouse and 15 worms per mouse and 59 worms per mouse and 23 worms per mouse
c1ccc(COc2ccc(Nc3ncnc4ccc(-c5cccc(N6CCOCC6)c5)cc34)cc2)cc1 — EC50 (Leishmania major; parasite growth, resazurin; promastigote): 2.7 µM
O=C(N/N=C/c1cc[n+](Cc2ccccc2)c2ccccc12)c1cc(C(=O)N/N=C/c2cc[n+](Cc3ccccc3)c3ccccc23)ncn1 — ΔTm (hp2 hairpin duplex DNA; FRET melting; 1 µM, together with: ds26 10 µM): 0.7 ± 0.2 °C
[2H]C([2H])(N)C([2H])([2H])NC(=O)c1cc(C2CC2)nc2c1cnn2C(C)C — plaque reduction (Enterovirus D68; viral replication; RD, US/MO/14-18947; 1000 nM): 98.8% and 99.4%
CC1=C/C(=N\N=C(/S)Nc2cccnc2)CC(C)(C)C1 — Emax (Mus musculus; gene silencing, high-content imaging; LDR reporter GFP cells; 30 h, retest run 1): 58%
Cc1cnc(CNC(=O)c2c(=O)c3ccc(N4CCCN(C)CC4)nc3n3c2sc2ccccc23)cn1 — upregulated G4-containing genes (Trypanosoma brucei; RNA-seq; Lister 427 bloodstream form; 2 x EC50, 4 h, overlap, with peaks, G4 ChIP-seq; relative to: untreated): 3 genes
CC1(C)C(NC(=O)C(=NOCC(=O)N2CC3CCCC3C2C(=O)O)c2csc(N)n2)C(=O)N1OS(=O)(=O)O (stereo not drawn) — MIC (Proteus vulgaris; agar dilution; ATCC 29905, susceptible): ≤ 0.03 µg/mL
c1ccc(Nc2ncnc3ccc(-c4cccc(N5CCOCC5)c4)cc23)cc1 — EC50 (Leishmania major; parasite growth, resazurin; promastigote): 9.4 µM
CC1(C)[C@H](NC(=O)/C(=N\OC2(C(=O)O)CCCC2)c2csc(N)n2)C(=O)N1OS(=O)(=O)O — MIC (Proteus vulgaris; agar dilution; ATCC 29905, susceptible): ≤ 0.03 µg/mL
COc1cccc(/C=N/Nc2nc(Nc3ccccc3)nc(-n3nc(C)cc3C)n2)c1O — Emax (Mus musculus; gene silencing, high-content imaging; LDR reporter GFP cells; 30 h, retest run 2): 99%

For quick reference, copied from above:
CC(=O)OC[C@H]1O[C@@H](Sc2sc(C(=O)c3ccc(C)cc3)c(N)c2-c2nc3ccccc3s2)[C@H](OC(C)=O)[C@@H](OC(C)=O)[C@H]1OC(C)=O — viral titre reduction (human adenovirus type 7; plaque reduction; non-toxic concentration): 10%
CCN(CC)CCCNC(=O)CSc1c2c(nc3cc(Cl)ccc13)CCCC2 — Emax (Mus musculus; gene silencing, high-content imaging; LDR reporter GFP cells; 30 h, retest, mean of two runs): 86%
CC1(C)[C@H](NC(=O)/C(=N\OCc2cc(=O)c(O)cn2O)c2csc(N)n2)C(=O)N1OS(=O)(=O)O — MIC (Proteus vulgaris; agar dilution; ATCC 29905 susceptible): ≤ 0.03 µg/mL
O=C(N/N=C/c1ccccn1)c1cc(-c2ccc(Cl)cc2)nc2ccccc12 — Emax (Mus musculus; gene silencing, high-content imaging; LDR reporter GFP cells; 30 h, confirmation, mean of two runs): 61%
CC(C)n1ncc2c(C(=O)NCC3CNC3)cc(C3CC3)nc21 — plaque reduction (Enterovirus D68; viral replication; RD, US/MO/14-18947; 30 nM): 0%
Fc1cccc(COc2ccc(Nc3ncnc4ccc(-c5cccc(CN6CCOCC6)c5)cc34)cc2Cl)c1 — EC50 (Leishmania major; parasite growth, resazurin; promastigote): 3.3 µM
CC(=O)O[C@@H]1[C@@H](OC(C)=O)[C@H](Sc2sc(C(=O)c3ccc(Cl)cc3)c(N)c2-c2nc3ccccc3s2)OC[C@H]1OC(C)=O — viral titre reduction (human adenovirus type 7; plaque reduction; non-toxic concentration): 0%
